Measurements pooled from the literature.
A part holds a random share of what one study measured. Values joined by “and” are separate records of one study, mostly repeats; a detail may differ.
Chain of UniProt P35462 (whole entry, looked up): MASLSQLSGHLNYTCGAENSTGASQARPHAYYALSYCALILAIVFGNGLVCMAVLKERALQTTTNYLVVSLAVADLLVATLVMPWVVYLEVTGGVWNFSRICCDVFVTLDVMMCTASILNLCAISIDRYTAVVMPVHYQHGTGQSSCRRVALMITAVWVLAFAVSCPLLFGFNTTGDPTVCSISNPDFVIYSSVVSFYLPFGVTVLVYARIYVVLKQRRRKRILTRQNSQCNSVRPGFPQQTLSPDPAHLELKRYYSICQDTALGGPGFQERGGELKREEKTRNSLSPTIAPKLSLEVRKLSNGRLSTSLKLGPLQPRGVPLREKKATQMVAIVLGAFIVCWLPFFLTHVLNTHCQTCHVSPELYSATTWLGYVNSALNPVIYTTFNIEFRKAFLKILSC
Chain of UniProt P08588 (whole entry, looked up): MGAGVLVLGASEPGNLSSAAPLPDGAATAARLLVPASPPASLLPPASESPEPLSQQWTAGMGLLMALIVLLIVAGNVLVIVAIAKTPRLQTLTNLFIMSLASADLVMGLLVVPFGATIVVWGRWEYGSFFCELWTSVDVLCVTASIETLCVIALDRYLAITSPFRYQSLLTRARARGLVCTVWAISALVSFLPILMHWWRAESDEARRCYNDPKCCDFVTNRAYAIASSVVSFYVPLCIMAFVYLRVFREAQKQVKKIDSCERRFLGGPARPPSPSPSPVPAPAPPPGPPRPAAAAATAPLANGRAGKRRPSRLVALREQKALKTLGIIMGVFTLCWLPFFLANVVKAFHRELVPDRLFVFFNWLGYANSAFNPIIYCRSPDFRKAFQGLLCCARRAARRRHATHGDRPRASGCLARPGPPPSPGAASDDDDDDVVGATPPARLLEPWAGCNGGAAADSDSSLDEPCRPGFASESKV
Chain of UniProt P35348 (whole entry, looked up): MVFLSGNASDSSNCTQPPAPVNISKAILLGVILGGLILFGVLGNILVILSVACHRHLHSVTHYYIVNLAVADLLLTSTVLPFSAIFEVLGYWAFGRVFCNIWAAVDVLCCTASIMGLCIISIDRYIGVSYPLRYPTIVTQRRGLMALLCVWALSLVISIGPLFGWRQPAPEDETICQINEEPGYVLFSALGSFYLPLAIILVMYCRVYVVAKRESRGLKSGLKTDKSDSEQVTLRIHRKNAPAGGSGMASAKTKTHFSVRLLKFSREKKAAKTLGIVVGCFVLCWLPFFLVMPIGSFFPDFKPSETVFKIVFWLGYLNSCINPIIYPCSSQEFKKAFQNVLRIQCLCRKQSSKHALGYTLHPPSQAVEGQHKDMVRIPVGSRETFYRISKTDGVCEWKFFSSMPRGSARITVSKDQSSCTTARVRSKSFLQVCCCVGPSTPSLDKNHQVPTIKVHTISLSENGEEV
Chain of UniProt P13945 (whole entry, looked up): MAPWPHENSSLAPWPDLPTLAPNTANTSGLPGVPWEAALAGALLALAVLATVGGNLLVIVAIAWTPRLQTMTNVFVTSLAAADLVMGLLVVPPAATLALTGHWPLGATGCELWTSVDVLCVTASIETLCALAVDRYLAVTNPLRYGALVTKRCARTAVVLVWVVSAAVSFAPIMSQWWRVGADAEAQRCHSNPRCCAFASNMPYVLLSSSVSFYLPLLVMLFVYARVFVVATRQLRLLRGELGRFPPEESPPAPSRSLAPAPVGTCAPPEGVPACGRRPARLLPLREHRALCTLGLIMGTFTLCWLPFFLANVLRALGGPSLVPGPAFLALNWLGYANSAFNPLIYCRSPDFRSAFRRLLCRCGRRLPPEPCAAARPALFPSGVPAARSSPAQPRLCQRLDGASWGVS
Chain of UniProt P08173 (whole entry, looked up): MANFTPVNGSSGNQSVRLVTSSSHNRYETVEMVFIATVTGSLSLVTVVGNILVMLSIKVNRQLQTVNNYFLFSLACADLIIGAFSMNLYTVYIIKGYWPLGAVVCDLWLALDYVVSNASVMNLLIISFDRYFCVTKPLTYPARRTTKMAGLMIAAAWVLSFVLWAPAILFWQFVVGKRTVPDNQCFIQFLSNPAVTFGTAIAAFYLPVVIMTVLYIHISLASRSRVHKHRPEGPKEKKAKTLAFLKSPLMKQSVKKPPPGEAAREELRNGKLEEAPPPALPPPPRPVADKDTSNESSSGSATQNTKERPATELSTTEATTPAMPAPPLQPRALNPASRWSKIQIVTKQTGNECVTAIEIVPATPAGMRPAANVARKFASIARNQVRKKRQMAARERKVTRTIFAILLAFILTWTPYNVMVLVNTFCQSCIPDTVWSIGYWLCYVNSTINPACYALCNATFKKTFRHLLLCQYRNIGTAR
Chain of UniProt P18089 (whole entry, looked up): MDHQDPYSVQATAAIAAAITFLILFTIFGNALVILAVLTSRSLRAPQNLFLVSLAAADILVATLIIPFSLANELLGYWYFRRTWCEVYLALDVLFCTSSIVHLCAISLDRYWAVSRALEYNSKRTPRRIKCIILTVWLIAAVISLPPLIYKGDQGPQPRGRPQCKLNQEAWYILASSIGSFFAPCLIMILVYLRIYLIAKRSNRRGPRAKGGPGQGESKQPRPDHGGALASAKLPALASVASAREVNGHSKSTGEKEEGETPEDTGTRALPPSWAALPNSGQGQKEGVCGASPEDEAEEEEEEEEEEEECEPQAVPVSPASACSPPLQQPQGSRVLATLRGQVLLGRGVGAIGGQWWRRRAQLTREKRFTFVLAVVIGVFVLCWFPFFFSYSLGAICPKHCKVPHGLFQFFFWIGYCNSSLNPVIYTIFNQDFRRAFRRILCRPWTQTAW
Chain of UniProt P25021 (whole entry, looked up): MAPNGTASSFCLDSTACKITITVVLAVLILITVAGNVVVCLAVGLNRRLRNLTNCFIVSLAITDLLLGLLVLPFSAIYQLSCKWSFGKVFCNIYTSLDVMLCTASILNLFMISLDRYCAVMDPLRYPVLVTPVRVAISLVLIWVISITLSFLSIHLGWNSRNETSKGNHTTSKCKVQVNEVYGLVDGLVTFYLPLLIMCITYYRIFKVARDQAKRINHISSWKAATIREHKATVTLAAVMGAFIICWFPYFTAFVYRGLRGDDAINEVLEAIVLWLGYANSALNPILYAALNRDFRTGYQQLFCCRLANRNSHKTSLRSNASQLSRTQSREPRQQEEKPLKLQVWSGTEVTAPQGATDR
Chain of UniProt P21728 (whole entry, looked up): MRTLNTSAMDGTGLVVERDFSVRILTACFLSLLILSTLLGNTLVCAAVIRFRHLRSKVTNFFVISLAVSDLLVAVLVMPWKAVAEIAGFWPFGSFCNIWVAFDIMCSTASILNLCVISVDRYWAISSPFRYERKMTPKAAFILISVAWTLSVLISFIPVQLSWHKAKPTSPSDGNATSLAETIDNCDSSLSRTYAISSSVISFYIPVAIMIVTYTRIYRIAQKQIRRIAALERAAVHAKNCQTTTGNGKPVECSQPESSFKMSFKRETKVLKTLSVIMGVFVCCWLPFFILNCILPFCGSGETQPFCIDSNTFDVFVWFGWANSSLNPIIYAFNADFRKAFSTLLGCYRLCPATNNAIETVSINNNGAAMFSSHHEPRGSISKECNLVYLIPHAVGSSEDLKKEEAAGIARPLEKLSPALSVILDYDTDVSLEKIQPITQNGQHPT
Chain of UniProt Q9Y5N1 (whole entry, looked up): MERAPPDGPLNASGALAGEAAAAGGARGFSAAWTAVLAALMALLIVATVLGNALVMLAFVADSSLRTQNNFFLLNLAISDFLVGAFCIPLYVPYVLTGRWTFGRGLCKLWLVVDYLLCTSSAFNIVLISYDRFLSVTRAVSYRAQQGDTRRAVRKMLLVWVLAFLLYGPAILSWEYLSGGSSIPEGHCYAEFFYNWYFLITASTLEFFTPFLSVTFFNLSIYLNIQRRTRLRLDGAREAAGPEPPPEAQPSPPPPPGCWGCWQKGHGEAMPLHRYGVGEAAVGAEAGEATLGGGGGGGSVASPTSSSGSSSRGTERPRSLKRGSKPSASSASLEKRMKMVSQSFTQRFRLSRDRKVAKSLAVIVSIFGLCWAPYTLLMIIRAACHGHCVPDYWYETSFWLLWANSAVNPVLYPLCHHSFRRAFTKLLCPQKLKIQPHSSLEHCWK
Chain of UniProt P14416 (whole entry, looked up): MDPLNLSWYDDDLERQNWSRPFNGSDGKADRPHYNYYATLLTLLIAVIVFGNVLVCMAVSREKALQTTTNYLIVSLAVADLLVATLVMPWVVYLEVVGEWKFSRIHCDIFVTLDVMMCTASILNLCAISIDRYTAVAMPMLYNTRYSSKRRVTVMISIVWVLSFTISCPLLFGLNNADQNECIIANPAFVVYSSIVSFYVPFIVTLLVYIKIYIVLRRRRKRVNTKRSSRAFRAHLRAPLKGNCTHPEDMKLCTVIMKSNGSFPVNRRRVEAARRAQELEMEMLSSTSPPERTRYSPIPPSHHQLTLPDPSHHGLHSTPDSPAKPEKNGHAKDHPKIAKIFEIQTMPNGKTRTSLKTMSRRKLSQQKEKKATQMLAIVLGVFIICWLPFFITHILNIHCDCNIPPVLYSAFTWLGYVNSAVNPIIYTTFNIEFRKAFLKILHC

Series 1
Host: human
Matrix: microsomes or S9
Concentration: 2 µM
Time: 0.5 h
Compound | remaining compound [%]
CN(C)C(=O)C1CNCCN1C(=O)OC(C)(C)C (centres unmarked) | 88.3
Brc1ccccc1Cn1c(-c2ccc(Oc3ccccc3)cc2)cn2ncnc12 | 47.7
C[C@@H](C(=O)NOC(C)(C)C)N1C(=O)Nc2cc(Cl)cc(Cl)c2S1(=O)=O | > 99
OC(Cn1cnc2ccccc21)Cn1c2ccccc2c2ccccc21 (centres unmarked) | 3.75
CN1CCC(Nc2ccn(-c3ncccc3C(F)(F)F)n2)CC1 | 91.5

Series 2
Compound: O=C(NCc1ncc(C(F)(F)F)cc1Cl)c1ccc2c(c1)C1(CCS(=O)(=O)CC1)[C@H](C1CC1)N2S(=O)(=O)c1ccc(F)cc1
Observed: ligand displacement
Concentration: 10 µM
target | inhibition
DRD3 (Homo sapiens, UniProt P35462) | 9.45%
DRD1 (Homo sapiens, UniProt P21728) | -38.2%
CHRM4 (Homo sapiens, UniProt P08173) | -13%
ADRB3 (Homo sapiens, UniProt P13945) | -2.87%
ADRA2B (Homo sapiens, UniProt P18089) | 13.5%
HRH2 (Homo sapiens, UniProt P25021) | 14.6%
ADRA1A (Homo sapiens, UniProt P35348) | -0.32%
ADRB1 (Homo sapiens, UniProt P08588) | -0.08%
HRH3 (Homo sapiens, UniProt Q9Y5N1) | -8.26%
DRD2 (Homo sapiens, UniProt P14416) | -35.7%

Series 3
Cell line: A-375
Concentration: 100 µM
Time: 36 h
Compound | viability
Nc1nc(CC(=O)Nc2ccc(CCNC[C@H](O)c3ccccc3)cc2)cs1 | 95.9%
C/C=C1\[C@H]2C=C(C)C[C@]1(N)c1ccc(=O)[nH]c1C2 | 92.5%
COc1ccc([C@@H]2CC(=O)c3c(O)cc(O[C@@H]4O[C@H](CO[C@@H]5O[C@@H](C)[C@H](O)[C@@H](O)[C@H]5O)[C@@H](O)[C@H](O)[C@H]4O)cc3O2)cc1O | 110%
COc1cc(C(=O)NS(=O)(=O)c2ccccc2C)ccc1Cc1cn(C)c2ccc(NC(=O)OC3CCCC3)cc12 | 46.3%
CCn1cc(C(=O)O)c(=O)c2cc(F)c(N3CCNCC3)nc21 | 26.4% and 23.8%
CC(=O)Oc1c(C)c(C)c2c(c1C)CCC(C)(CCC[C@H](C)CCC[C@H](C)CCCC(C)C)O2 (some centres unmarked) | 108%
CN(C)CCc1c[nH]c2ccc(Cn3cncn3)cc12 | 97.8%

Series 4
Cell line: mouse MPNST tumor cells
Method: high-content nuclear imaging
Measured: cell number
Concentration: 10 µM
Time: 12 h
Notes: mean of 2 replicates
Relative to: plate mean
Reading: higher = more cells
Compound | nuclei count [z-score]
Cc1cc(C)cc(C(=O)NOCCCCCC(=O)NO)c1 | -0.614
COc1ccccc1S(=O)(=O)Nc1ccc2c(c1)CN(C)C(=O)N2 | -1.45
C[C@H]1Oc2cc(cnc2N)-c2c(nn(C)c2C#N)CN(C)C(=O)c2ccc(F)cc21 | 2.93
CNC(=O)c1cccc(NC(=O)N2CCC(Oc3ccccc3Cl)CC2)c1 | 0.733
CC(CNS(=O)(=O)C(C)C)c1ccc(-c2ccc(C#N)cc2)cc1 (centres unmarked) | -1.07
Cn1c(NCCN(CCO)CCCc2ccc([N+](=O)[O-])cc2)cc(=O)n(C)c1=O | 0.517
c1ccc(-c2n[nH]c3c2oc2ccccc23)cc1 | -1.31

Excerpt of the above (series 3):
Compound | viability
COc1ccc([C@@H]2CC(=O)c3c(O)cc(O[C@@H]4O[C@H](CO[C@@H]5O[C@@H](C)[C@H](O)[C@@H](O)[C@H]5O)[C@@H](O)[C@H](O)[C@H]4O)cc3O2)cc1O | 110%
COc1cc(C(=O)NS(=O)(=O)c2ccccc2C)ccc1Cc1cn(C)c2ccc(NC(=O)OC3CCCC3)cc12 | 46.3%
CCn1cc(C(=O)O)c(=O)c2cc(F)c(N3CCNCC3)nc21 | 26.4% and 23.8%
